Measurements gathered from unrelated publications.
Numbered parts are unrelated; each lists some results of a single study. pEC50, pIC50: −log10 of the molar value.

Block 1
Target: Replicase polyprotein 1ab, nsp13 helicase (rep, Severe acute respiratory syndrome coronavirus 2, UniProt P0DTD1)
Action: inhibitor
Tested at: 20 µM
For CC(C(=O)O)c1ccc(C(=O)c2cccs2)cc1 (stereo not shown), the inhibition was 8.92%.
With CC(=O)c1cc([N+](=O)[O-])c(Sc2cccc(Cl)c2Cl)s1 the inhibition was -0.21%.
The inhibition of O=C(O)Cc1nn(Cc2nc3cc(C(F)(F)F)ccc3s2)c(=O)c2ccccc12 is reported as 2.29%.
For CC(O)CCCCn1c(=O)c2c(ncn2C)n(C)c1=O (racemic), the inhibition was 1.84%.
CC(C)(C)NCC(O)c1cc(O)cc(O)c1 (stereo not shown) gave an inhibition of 3.92%.
O=c1ccc2ccc(O)c(O)c2o1 gave an inhibition of 3.18%.
The inhibition of CN1CCCN(C(c2ccccc2)c2ccc(Cl)cc2)CC1 (stereo not shown) is reported as -2.46%.
For Nc1[nH]nc2nc3ccccc3nc12, the inhibition was -0.99%.
For CC[C@H]1[C@@H]2C[C@H]3[C@@H]4N(C)c5ccccc5[C@]45C[C@@H]([C@H]2[C@H]5O)N3[C@@H]1O, the inhibition was -0.27%.
The inhibition of Nc1ncn([C@H]2C[C@H](O)[C@@H](CO)O2)c(=O)n1 is reported as -3.65%.
CC(=O)S[C@@H]1CC2=CC(=O)CC[C@]2(C)[C@H]2CC[C@@]3(C)[C@@H](CC[C@@]34CCC(=O)O4)[C@H]12 has an inhibition of 3.3%.
COc1ccc2c(c1)-c1nn(CCCN(C)C)c3ccc([N+](=O)[O-])c(c13)N2 gave an inhibition of 37.4%.
CN(C)CCCN1c2ccccc2Sc2ccc(Cl)cc21 gave an inhibition of 14.4%.
COC(=O)[C@H](Cc1ccc([N+](=O)[O-])cc1)NC(=O)c1cccc2ccccc12 gave an inhibition of 0.07%.
CC(CN1c2ccccc2Sc2ccccc21)N(C)C (stereo not shown) gave an inhibition of 1.6%.
For CCOC(=O)[C@H](CCc1ccccc1)N[C@@H](C)C(=O)N1CCC[C@H]1C(=O)O, the inhibition was -0.7%.
O=C1C2CC3CC1CC(O)(C3)C2 gave an inhibition of 1.83%.
Fc1ccccc1-c1nc2ccn(Cc3ccc(-c4ccc(C(F)(F)F)cc4C(F)(F)F)nn3)cc-2n1 gave an inhibition of 3.34%.
CC(C)(C)C(=O)OCC(=O)[C@H]1CC[C@H]2[C@@H]3CCC4=CC(=O)CC[C@]4(C)[C@H]3CC[C@]12C gave an inhibition of 12.2%.
The inhibition of CN1CCCCC1Cn1cc(C(=O)c2cc([N+](=O)[O-])ccc2I)c2ccccc21 (stereo not shown) is reported as 6.1%.
The inhibition of CC(C)NCC(O)COc1ccc(COCCOC(C)C)cc1 (stereo not shown) is reported as 2.59%.
For COc1ccc2cc1Oc1ccc(cc1)C[C@H]1c3cc(c(OC)cc3CCN1C)Oc1c(OC)c(OC)cc3c1[C@H](C2)N(C)CC3, the inhibition was 5.9%.
With CC[C@@H](C(N)=O)N1CCCC1=O the inhibition was -2.88%.
For CC(=O)OC[C@H]1O[C@@](COC(C)=O)(O[C@H]2O[C@H](COC(C)=O)[C@@H](OC(C)=O)[C@H](OC(C)=O)[C@H]2OC(C)=O)[C@@H](OC(C)=O)[C@@H]1OC(C)=O, the inhibition was 0.96%.
With CCOC(=O)Nc1ccc(NCc2ccc(F)cc2)cc1N the inhibition was 3.77%.

Block 2
Target: Interferon regulatory factor 5, full length, phosphomimetic (IRF5, Homo sapiens, UniProt Q13568-2, residues 1-514, S451D/S453D/S456D/S462D)
Method: protein-binding microarray
Form: double-stranded DNA, one strand shown
Medium: in vitro
Tested at: 940 nM top
Setting: 60-bp whole probe
Together with: salmon DNA 0.4 mg/ml
Relative to: random background probes
Reading: higher = stronger binding
Shared flanks, not repeated: GCCTAGCAC … GTCTTGATTCGCTTGACGCTGCTG
Under “fitted relative affinity”, `TCAGGGCTCTTCTCTGAAACTGTGCTA` is recorded as -0.0896 z-score.
`TCATCTTATCCTATCAGACTGTGCTAG`: “fitted relative affinity” 0.73 z-score.
`AAGCCAGGACGAGCTCGCCTGTGCTAG`: “fitted relative affinity” -0.74 z-score.
`TAATGCTTCTGTATTCATGAGTGCTAG`: “fitted relative affinity” 0.293 z-score.
`TCATTTTTTTTTCTGATACTGTGCTAG` — result for “fitted relative affinity”: 1.49 z-score.
`TTAGATATCGGGACTGGATTGGTGCTA`: “fitted relative affinity” 0.0845 z-score.
Under “fitted relative affinity”, `GACGGTATGGGACTGGGGACGTGCTAG` is recorded as -0.318 z-score.
`GATTTTTTAGCTTGCAAAAAGTGCTAG`: “fitted relative affinity” -0.514 z-score.

Block 3
Target: RNA binding protein fox-1 homolog 2, RRM domain, GST-SBP tag (RBFOX2, Homo sapiens, UniProt O43251-10, residues 100-194)
Method: RNA Bind-n-Seq
Form: RNA
Medium: in vitro
Tested at: 365 nM
Setting: natural RNA segment, single round, ends assumed
Relative to: no-protein control
Reading: higher = stronger binding
Shared flanks, not repeated: GGGAGUUCUACAGUCCGACGAUC … UGGAAUUCUCGGGUGCCAA
Residues (chain): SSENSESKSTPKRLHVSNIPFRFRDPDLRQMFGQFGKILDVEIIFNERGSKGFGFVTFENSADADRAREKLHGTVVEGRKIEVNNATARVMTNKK
Under “RBNS enrichment (R)”, `CCCCACCUACCCUGGCACUUGCCCUGUGACAUGAUGGGUGAGGCUGUGGGGGAACUCAGUGGCAGGAAGCUAGUGGUCCCUGGGAACAGGGGACAGGAAUCCGUACCCAA` is recorded as 0.409.
`GUUUGACGGACUGUUCCAAUCUGCCUUAUGAAAUCCAACAAGAAUGUUAGUGGCAUCUCUGUGGUCCCUAGGCAGGCAGGAGGUAUGGGGAGGUGCUGUUGGCGUGGAGG` — result for “RBNS enrichment (R)”: 2.02.
For `AGGUUAGAAUGUGCAUCGCGCAUAGCCGAGCAGCCUGCUAGCAGGUGACACACUCCGUGGGGGAGGCUCUUCUCCCCUUCUUUCUCUAGUCUGGGUGGUGAACGGGCUGA`, “RBNS enrichment (R)” read 0.456.
Under “RBNS enrichment (R)”, `ACAGCUAAUGGUGCAGUUCUAAAUAUAUAUUGCAUAGGACUGGCAUUAUAUAGCAGAAAUAACUACUGUAUAAUUCUUGGGGUUAACCAUCUUUAGUUAAUGGAAUUUUA` is recorded as 0.656.
For `UGUUUGCAGCAUGCCCAAGAUGACCCUGCUCCUGAACCUCUACCUAGCCACUGGUAGAGAGAGGAGAGAACGUGGUAAUGGCAGCAACACUCUAGGCAUGAGAGCACCGG`, “RBNS enrichment (R)” read 0.973.
For `AGACUCAAUGAGUUAAUACUAUUUCACUGAGCCCAAGAUGGAAACUUGGUUUGACCUAAAACAUCUGAUUAAUAUAGGCUAGCUGAUUUCUUAAAAAUUCGUUGCAUUGA`, “RBNS enrichment (R)” read 0.316.
`GAAAUCAUAUUAUAAAUAUUUCAACUAAUUUUACUCUGAAUUUGUUUAUUAAAAGCUUUUUGAACAUUAAAUUAUUAUUUCUUCAAUGCAUUUAGAAGUUAGAACAGAAA` — result for “RBNS enrichment (R)”: 1.31.
`UGCAGUUUCUGCCUUUAAGCCAAAGAAACAAGCUGUGCGGACCUGGCCCAUUAAGAGGCCUCAGUGGGAGAAGGGCUAAAAAGAGCCUGAGGUCAUGCGGUUGGACACUG`: “RBNS enrichment (R)” 0.678.

Block 4
Target: Sal-like protein 4, full length isoform A (SALL4, Homo sapiens, UniProt Q9UJQ4, residues 1-1053)
Chain of UniProt Q9UJQ4 (whole entry, looked up): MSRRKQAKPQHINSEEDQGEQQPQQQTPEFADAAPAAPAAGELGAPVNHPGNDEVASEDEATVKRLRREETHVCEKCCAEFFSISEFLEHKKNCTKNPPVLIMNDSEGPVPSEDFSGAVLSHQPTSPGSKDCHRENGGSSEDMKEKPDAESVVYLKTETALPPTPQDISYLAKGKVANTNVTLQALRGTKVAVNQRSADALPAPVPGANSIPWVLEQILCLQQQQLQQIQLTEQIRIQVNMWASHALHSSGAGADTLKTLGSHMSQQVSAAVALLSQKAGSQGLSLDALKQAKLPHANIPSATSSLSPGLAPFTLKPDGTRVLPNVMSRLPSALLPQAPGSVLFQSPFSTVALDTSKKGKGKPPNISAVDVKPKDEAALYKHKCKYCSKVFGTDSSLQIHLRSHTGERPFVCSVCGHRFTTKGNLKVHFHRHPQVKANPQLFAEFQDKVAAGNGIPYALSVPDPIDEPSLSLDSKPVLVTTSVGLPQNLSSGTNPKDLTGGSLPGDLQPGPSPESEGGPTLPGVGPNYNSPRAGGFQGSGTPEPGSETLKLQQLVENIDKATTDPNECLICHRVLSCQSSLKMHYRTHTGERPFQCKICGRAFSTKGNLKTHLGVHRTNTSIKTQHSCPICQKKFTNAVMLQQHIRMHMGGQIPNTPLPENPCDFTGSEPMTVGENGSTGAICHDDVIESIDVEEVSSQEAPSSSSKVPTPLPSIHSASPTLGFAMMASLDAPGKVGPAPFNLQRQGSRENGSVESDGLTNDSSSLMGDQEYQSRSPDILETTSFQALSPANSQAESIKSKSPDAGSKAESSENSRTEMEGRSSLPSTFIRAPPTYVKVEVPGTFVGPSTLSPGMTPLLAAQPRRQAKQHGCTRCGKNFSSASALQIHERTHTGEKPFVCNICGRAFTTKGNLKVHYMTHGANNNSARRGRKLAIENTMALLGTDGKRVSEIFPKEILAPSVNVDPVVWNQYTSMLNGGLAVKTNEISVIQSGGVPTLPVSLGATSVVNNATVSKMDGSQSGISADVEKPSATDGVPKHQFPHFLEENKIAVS
Method: universal PBM
Form: double-stranded DNA, one strand shown
Medium: in vitro
Tested at: 600 nM
Setting: 8-mer, flanks averaged, mean of replicates
Reading: higher = stronger binding
With `CTTAATTC` the E-score was 0.274.
`AGCTATTG` gave an E-score of 0.0513.
`GCCGATCC` gave an E-score of -0.194.
`CAATATTG` has an E-score of 0.356.
`ATAATAGG` has an E-score of 0.317.
For `CCGGTGCG`, the E-score was -0.358.
For `AAGGGTTA`, the E-score was 0.0707.
For `AATCGTAC`, the E-score was 0.0842.

Block 5
Cell line: HEK-293T
Read-out: pseudovirus infection
Organism: VSV pseudotyped with SARS-CoV-2 spike
Tested at: 10 µM
Time: 16 h
Relative to: vehicle-treated
For Cc1ccc(Nc2nccc(N(C)c3ccc4c(C)n(C)nc4c3)n2)cc1S(N)(=O)=O, the GFP-positive cells was 118%.
With CCc1nn(CCCN2CCN(c3cccc(Cl)c3)CC2)c(=O)n1CCOc1ccccc1 the GFP-positive cells was 101%.
COc1cc2c(Nc3ccc(Br)cc3F)ncnc2cc1OCC1CCN(C)CC1 gave a GFP-positive cells of 20.3%.

Further values, each from its own experiment
For N#CSc1cc(SC#N)c(N)nc1N, the pEC50 was about 5.18 (SARS-CoV-2; viral RNA; Vero E6).
Cc1ccc(C)c(-n2sc3cc(F)ccc3c2=O)c1 has a pIC50 of 8.00 (Replicase polyprotein 1ab, main protease (rep, Severe acute respiratory syndrome coronavirus 2, UniProt P0DTD1); enzyme activity, inhibitor; SARS-CoV-2; together with: DTT).
O=C(c1cccs1)c1no[n+]([O-])c1C(=O)c1cccs1 has an inhibition of -47.4% (SARS-CoV-2; cytopathic effect; Vero E6; 10 µM, 96 h).

Excerpt of the above (block 5):
With CCc1nn(CCCN2CCN(c3cccc(Cl)c3)CC2)c(=O)n1CCOc1ccccc1 the GFP-positive cells was 101%.
COc1cc2c(Nc3ccc(Br)cc3F)ncnc2cc1OCC1CCN(C)CC1 gave a GFP-positive cells of 20.3%.
For Cc1ccc(Nc2nccc(N(C)c3ccc4c(C)n(C)nc4c3)n2)cc1S(N)(=O)=O, the GFP-positive cells was 118%.
